Experimental data of several laboratories.
Each numbered part is a random draw from the data of one study; scales do not carry over between parts. “And” joins repeats or separate records; there may be more than shown.
Sequence of UniProt P10721 (whole entry, unmodified, looked up): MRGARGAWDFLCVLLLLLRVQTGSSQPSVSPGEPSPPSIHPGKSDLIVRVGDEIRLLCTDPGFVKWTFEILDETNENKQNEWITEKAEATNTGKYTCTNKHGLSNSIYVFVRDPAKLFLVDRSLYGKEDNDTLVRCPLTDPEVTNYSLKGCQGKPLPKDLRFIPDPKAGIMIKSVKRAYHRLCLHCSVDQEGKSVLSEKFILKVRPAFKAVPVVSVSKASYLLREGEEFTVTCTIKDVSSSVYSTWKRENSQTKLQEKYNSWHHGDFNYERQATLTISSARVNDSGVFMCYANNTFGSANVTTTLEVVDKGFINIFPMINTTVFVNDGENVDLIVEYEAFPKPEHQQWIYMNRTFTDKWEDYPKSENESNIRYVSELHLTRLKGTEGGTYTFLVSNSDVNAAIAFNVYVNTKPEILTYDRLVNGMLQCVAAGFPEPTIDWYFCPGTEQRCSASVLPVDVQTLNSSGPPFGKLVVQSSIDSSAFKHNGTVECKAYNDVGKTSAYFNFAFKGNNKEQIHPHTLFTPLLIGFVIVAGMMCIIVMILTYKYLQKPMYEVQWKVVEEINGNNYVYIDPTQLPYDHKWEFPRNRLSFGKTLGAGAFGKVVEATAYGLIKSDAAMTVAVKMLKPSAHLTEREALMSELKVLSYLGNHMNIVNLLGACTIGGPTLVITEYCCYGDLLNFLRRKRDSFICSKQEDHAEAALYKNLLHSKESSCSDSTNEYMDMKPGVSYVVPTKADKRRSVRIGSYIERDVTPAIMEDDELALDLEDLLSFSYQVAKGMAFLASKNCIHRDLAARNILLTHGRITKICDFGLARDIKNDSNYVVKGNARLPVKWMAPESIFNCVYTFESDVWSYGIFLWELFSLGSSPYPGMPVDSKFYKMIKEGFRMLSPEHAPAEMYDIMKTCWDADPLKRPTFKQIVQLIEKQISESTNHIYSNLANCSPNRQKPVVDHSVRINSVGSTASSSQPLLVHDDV
Sequence of UniProt O15075 (whole entry, looked up): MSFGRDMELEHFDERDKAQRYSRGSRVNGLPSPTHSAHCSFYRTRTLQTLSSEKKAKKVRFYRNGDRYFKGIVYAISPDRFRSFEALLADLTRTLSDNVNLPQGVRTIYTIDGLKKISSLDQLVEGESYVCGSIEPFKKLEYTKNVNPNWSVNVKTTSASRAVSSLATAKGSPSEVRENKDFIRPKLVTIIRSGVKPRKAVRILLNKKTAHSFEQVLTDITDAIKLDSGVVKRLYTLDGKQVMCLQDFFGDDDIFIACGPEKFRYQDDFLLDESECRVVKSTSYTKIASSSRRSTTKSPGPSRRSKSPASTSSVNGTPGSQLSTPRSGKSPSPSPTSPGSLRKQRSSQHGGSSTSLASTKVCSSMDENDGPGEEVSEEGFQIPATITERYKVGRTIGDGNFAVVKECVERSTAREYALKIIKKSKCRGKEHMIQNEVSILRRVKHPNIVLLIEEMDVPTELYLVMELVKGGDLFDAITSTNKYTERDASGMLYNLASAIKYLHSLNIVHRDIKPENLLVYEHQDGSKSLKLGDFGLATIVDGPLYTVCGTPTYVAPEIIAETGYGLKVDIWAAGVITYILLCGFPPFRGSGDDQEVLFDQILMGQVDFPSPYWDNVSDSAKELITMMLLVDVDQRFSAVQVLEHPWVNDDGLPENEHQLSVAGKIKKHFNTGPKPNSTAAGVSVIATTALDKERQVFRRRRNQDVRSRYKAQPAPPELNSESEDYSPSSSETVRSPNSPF
Sequence of UniProt P68400 (whole entry, looked up): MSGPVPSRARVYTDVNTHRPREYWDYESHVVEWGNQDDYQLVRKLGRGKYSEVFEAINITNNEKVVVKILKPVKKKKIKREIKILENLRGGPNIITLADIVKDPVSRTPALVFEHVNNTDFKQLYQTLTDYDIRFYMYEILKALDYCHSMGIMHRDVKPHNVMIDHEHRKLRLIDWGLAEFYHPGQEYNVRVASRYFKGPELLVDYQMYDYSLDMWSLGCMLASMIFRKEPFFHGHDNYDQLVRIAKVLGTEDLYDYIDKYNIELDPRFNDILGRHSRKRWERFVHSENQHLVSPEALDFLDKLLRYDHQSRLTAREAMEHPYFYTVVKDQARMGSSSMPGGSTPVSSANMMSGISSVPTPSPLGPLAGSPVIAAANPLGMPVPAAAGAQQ

Series 1 — effect on: enzyme activity; mode: inhibitor; tested at: 77 µM; relative to: untreated; measurement: remaining activity
Target: DNA polymerase theta, ATPase domain (POLQ, Homo sapiens, UniProt O75417)
Sequence of UniProt O75417 (whole entry, unmodified, looked up): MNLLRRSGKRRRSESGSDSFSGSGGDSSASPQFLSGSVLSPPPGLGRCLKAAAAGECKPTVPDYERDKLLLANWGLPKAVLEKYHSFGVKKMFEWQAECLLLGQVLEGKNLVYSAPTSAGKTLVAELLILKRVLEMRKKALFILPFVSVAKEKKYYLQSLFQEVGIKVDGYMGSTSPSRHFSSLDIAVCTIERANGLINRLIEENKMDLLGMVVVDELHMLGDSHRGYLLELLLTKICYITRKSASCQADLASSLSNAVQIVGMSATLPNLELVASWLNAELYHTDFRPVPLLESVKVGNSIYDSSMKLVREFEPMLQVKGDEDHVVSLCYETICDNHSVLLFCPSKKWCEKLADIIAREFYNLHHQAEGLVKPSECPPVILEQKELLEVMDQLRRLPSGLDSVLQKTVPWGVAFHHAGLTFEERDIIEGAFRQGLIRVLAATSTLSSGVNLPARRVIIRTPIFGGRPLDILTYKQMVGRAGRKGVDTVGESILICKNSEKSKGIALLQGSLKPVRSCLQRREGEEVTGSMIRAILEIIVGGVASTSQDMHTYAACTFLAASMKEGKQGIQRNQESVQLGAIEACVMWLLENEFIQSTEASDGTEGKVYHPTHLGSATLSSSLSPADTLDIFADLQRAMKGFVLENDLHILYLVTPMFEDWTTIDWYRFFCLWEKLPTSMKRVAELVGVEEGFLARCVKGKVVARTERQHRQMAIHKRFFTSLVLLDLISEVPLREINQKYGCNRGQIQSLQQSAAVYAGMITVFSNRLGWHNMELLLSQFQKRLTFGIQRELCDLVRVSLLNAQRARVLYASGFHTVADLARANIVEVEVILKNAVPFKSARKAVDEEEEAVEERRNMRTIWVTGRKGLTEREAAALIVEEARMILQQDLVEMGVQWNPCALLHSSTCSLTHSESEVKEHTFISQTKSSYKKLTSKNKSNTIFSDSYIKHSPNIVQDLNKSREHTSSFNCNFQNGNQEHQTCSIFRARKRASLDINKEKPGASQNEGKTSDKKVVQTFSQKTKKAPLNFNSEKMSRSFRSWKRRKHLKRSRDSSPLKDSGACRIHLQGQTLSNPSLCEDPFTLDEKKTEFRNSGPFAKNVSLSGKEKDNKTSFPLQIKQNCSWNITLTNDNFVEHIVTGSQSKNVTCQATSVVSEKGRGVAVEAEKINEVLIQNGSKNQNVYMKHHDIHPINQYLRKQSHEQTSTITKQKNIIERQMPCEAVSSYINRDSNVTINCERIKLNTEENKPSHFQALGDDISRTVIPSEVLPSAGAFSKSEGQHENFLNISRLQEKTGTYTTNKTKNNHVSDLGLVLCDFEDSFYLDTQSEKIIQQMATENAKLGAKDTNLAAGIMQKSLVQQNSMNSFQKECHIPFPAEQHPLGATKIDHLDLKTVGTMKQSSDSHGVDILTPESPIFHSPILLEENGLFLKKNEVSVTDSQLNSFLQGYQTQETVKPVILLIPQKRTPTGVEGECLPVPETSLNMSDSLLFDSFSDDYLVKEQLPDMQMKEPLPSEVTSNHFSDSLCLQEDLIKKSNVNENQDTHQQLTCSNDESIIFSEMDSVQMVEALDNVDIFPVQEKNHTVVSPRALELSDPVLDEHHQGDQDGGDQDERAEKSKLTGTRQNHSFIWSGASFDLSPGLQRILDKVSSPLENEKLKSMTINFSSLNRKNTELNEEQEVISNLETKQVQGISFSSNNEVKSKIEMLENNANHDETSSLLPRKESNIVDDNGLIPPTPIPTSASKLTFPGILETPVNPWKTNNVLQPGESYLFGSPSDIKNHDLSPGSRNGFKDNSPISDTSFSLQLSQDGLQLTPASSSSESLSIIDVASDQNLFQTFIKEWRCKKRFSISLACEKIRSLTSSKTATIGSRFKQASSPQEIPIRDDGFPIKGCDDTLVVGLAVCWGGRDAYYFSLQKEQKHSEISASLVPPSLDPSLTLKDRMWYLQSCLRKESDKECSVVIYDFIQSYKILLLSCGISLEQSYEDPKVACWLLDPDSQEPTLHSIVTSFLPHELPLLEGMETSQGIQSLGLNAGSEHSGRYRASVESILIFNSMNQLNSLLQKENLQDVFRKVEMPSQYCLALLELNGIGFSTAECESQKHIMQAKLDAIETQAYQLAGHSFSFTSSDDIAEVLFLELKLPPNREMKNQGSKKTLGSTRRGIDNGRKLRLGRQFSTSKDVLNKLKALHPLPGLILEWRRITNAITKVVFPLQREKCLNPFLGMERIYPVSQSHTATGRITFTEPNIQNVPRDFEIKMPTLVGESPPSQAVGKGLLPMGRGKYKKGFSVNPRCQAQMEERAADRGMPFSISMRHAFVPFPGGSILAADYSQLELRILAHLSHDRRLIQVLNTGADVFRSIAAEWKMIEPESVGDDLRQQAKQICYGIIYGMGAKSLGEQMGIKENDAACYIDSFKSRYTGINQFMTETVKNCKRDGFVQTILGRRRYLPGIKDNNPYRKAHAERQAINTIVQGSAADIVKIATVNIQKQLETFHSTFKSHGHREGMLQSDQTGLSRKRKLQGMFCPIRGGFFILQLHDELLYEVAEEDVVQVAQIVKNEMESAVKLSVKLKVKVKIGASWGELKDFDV
Cc1cncc2cccc(S(=O)(=O)N3CCCN(C(=O)CN)C[C@@H]3C)c12: 99.8%
O=C(CCCCCCC(=O)Nc1ccccc1)NO: 102%
Oc1ccc(Nc2nc(-c3ccc(Cl)cc3)cs2)cc1: 103%
CCCCNc1ccc(C(=O)OCCOCCOCCOCCOCCOCCOCCOCCOCCOC)cc1: 99.5%
C[C@@H](c1ncncc1F)[C@](O)(Cn1cncn1)c1ccc(F)cc1F: 98.1% and 96.7%
Cc1c(NC(=O)c2cccnc2)c(=O)n(-c2ccccc2)n1C: 101%
CC(CCc1ccc(O)cc1)NCCc1ccc(O)c(O)c1 (stereo not drawn): 101%
C[C@@H]1COC(Nc2ccc3ncnc(Nc4ccc(OCc5nccs5)c(Cl)c4)c3c2)=N1: 96.5%
CCCCc1nc(Cl)c(CO)n1Cc1ccc(-c2ccccc2-c2nnn[nH]2)cc1: 97.3%
C=C1/C(=C\C=C2/CCC[C@]3(C)[C@@H]([C@H](C)CCCC(C)C)CC[C@@H]23)C[C@@H](O)C[C@@H]1O: 98.6%
CCOc1nc2cccc(C(=O)OCc3oc(=O)oc3C)c2n1Cc1ccc(-c2ccccc2-c2noc(=O)[nH]2)cc1: 59.1%
CC1=C(C(=O)O)N2C(=O)[C@@H](NC(=O)[C@H](N)C3=CCC=CC3)[C@H]2SC1: 99.8%
CCCc1nc2c(C)cc(-c3nc4ccccc4n3C)cc2n1Cc1ccc(-c2ccccc2C(=O)O)cc1: 90.5%

Series 2 — Structure (SMILES): CC(C)(O)c1cncc(-c2nc3ccc(F)cc3n2C2CC2)c1; technique: competition with immobilised ligand; tested at: 1 µM; measurement: remaining binding
TGFBR1 (Homo sapiens, UniProt P36897); cell-free assay: 90%
EIF2AK1 (Homo sapiens, UniProt Q9BQI3); cell-free assay: 100%
KIT (Homo sapiens, UniProt P10721, V559D); cell-free assay: 100%
PRKAA1 (Homo sapiens, UniProt Q13131); cell-free assay: 100%
CAMK1G (Homo sapiens, UniProt Q96NX5); cell-free assay: 100%
LRRK2 (Homo sapiens, UniProt Q5S007); cell-free assay: 100%
ULK2 (Homo sapiens, UniProt Q8IYT8); cell-free assay: 100%
PIK3C2G (Homo sapiens, UniProt O75747); cell-free assay: 100%
CDKL2 (Homo sapiens, UniProt Q92772); cell-free assay: 97%
ACVRL1 (Homo sapiens, UniProt P37023); cell-free assay: 100%
TLK2 (Homo sapiens, UniProt Q86UE8); cell-free assay: 100%
ZAP70 (Homo sapiens, UniProt P43403); cell-free assay: 100%
DYRK1A (Homo sapiens, UniProt Q13627); binding: 48%
Tyrosine-protein kinase ABL1, non-phosphorylated (ABL1, Homo sapiens, UniProt P00519, F317I); binding: 100%
ALK (Homo sapiens, UniProt Q9UM73, L1196M); cell-free assay: 100%
CAMK1D (Homo sapiens, UniProt Q8IU85); cell-free assay: 100%
PIK3CA (Homo sapiens, UniProt P42336, I800L); cell-free assay: 90%
Tyrosine-protein kinase ABL1, phosphorylated (ABL1, Homo sapiens, UniProt P00519, H396P); cell-free assay: 100%
CSNK1G3 (Homo sapiens, UniProt Q9Y6M4); cell-free assay: 100%
DYRK2 (Homo sapiens, UniProt Q92630); cell-free assay: 100%
NEK2 (Homo sapiens, UniProt P51955); cell-free assay: 100%
CAMK2G (Homo sapiens, UniProt Q13555); cell-free assay: 100%
MYLK3 (Homo sapiens, UniProt Q32MK0); cell-free assay: 87%
IKBKB (Homo sapiens, UniProt O14920); cell-free assay: 100%
DCLK1 (Homo sapiens, UniProt O15075); cell-free assay: 88%

Series 3 — effect on: enzyme activity; mode: inhibitor; tested at: 0.5 µM; relative to: control; measurement: remaining activity
Compound: CC(C)(C)c1nc2c3cc[nH]c(=O)c3c3cc(F)ccc3c2[nH]1
MAP2K6 (Homo sapiens, UniProt P52564): 89%
MKNK2 (Homo sapiens, UniProt Q9HBH9): 62%
CSNK2A1 (Homo sapiens, UniProt P68400): 82.9%
MAP4K2 (Homo sapiens, UniProt Q12851): 66.2%
MAPK13 (Homo sapiens, UniProt O15264): 104%
IRAK4 (Homo sapiens, UniProt Q9NWZ3): 96.3%
LRRK2 (Homo sapiens, UniProt Q5S007): 47.5%
MAP3K10 (Homo sapiens, UniProt Q02779): 89.7%
AKT3 (Homo sapiens, UniProt Q9Y243): 76.4%
NEK4 (Homo sapiens, UniProt P51957): 65.6%
PRKCD (Homo sapiens, UniProt Q05655): 43.6%
LYN (Homo sapiens, UniProt P07948): 101%
Cyclin-dependent kinase 9, with cyclin T1 (CDK9, Homo sapiens, UniProt P50750): 100%
KIT (Homo sapiens, UniProt P10721): 96.1%
WNK2 (Homo sapiens, UniProt Q9Y3S1): 104%
PLK2 (Homo sapiens, UniProt Q9NYY3): 92.6%
CHEK1 (Homo sapiens, UniProt O14757): 22.9%
BTK (Homo sapiens, UniProt Q06187): 80.5%
CSNK1A1 (Homo sapiens, UniProt P48729): 94.6%
MAPK12 (Homo sapiens, UniProt P53778): 97.9%
PRKCI (Homo sapiens, UniProt P41743): 96%
EPHA5 (Homo sapiens, UniProt P54756): 100%

Series 4 — effect on: RNA clamping; technique: fluorescence polarization; tested at: concentration not given; setting: mean of two replicates; added: FAM-labelled poly r(AG)8 RNA; measurement: fluorescence polarization change
Target: Eukaryotic initiation factor 4A-III (Homo sapiens, UniProt P38919)
Sequence of UniProt P38919 (whole entry, looked up): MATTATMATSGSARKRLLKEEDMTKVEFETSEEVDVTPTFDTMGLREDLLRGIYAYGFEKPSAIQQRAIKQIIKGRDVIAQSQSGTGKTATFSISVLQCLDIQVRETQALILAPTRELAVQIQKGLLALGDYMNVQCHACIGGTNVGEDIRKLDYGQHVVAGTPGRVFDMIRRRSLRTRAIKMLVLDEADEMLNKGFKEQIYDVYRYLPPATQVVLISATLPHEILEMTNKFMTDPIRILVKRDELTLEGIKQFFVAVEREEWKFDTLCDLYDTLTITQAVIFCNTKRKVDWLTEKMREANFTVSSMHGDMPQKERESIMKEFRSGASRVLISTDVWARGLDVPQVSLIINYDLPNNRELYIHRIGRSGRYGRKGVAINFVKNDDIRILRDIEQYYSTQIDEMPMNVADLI
COC(=O)[C@@H]1[C@@H](c2ccccc2)[C@]2(c3ccc(OC)cc3)Oc3cc(OC)cc(OC)c3[C@@]23OC(c2cccnc2)=N[C@@]13O: 3.5 mP
COc1ccc([C@@]23Oc4cc(OC)cc(OC)c4[C@]2(O)c2nc(-c4ccccc4)[nH]c(=O)c2/C3=C\Cc2ccccc2)cc1: 2.8 mP
COc1ccc([C@@]23Oc4cc(OC)cc(OC)c4[C@]2(O)[C@H](O)[C@H](C(=O)c2cc4ccccc4n2C)[C@H]3c2ccccc2)cc1: 7.3 mP
C#CCCC1(CCOc2cc(OC)c3c(c2)O[C@@]2(c4ccc(OC)cc4)[C@H](c4ccccc4)[C@@H](C(=O)c4ccco4)[C@@H](O)[C@@]32O)N=N1: -3.1 mP
COC(=O)[C@H]1C(=O)[C@@]2(NCCc3scnc3C)c3c(OC)cc(OC)cc3O[C@@]2(c2ccc(OC)cc2)[C@@H]1c1ccccc1: 3.6 mP
COc1ccc([C@@]23Oc4cc(OC)cc(OC)c4[C@]2(O)[C@@H]2OC(=O)[C@@H]2[C@H]3c2ccccc2)cc1: 25.5 mP
COC(=O)[C@@H]1[C@@H](c2ccccc2)[C@]2(c3ccc(OC)cc3)Oc3cc(OC)cc(OC)c3[C@@]23N=C(c2ccccc2)N[C@@]13O: 13.2 mP
C#CCOCCOCCNC(=O)CCCn1c(-c2ccccc2)nc2c(c1=O)[C@@H](c1ccccc1)[C@]1(c3ccc(OC)cc3)Oc3cc(OC)cc(OC)c3[C@]21O: 17 mP
COc1ccc([C@@]23Oc4cc(OC)cc(OC)c4[C@]2(O)c2nc(-c4ccccc4)n(CC(CC(=O)O)OC)c(=O)c2[C@H]3c2ccccc2)cc1 (stereo partly drawn): 9.9 mP
COc1ccc([C@]23Oc4cc(OC)cc(OC)c4[C@](O)([C@H](C(=O)NCCCC(OC)OC)[C@H]2c2ccccc2)[C@H]3O)cc1: 3.5 mP
COc1ccc([C@@]23Oc4cc(OC)cc(OC)c4[C@]2(O)[C@H](O)[C@H](C(=O)c2nccn2C)[C@H]3c2ccccc2)cc1: 15.6 mP
COCCN[C@@]12C(=O)C[C@@H](c3ccccc3)[C@]1(c1ccc(OC)cc1)Oc1cc(OC)cc(OC)c12: 0.8 mP

For quick reference, copied from above (series 1):
CCOc1nc2cccc(C(=O)OCc3oc(=O)oc3C)c2n1Cc1ccc(-c2ccccc2-c2noc(=O)[nH]2)cc1: 59.1%
CC1=C(C(=O)O)N2C(=O)[C@@H](NC(=O)[C@H](N)C3=CCC=CC3)[C@H]2SC1: 99.8%
C[C@@H]1COC(Nc2ccc3ncnc(Nc4ccc(OCc5nccs5)c(Cl)c4)c3c2)=N1: 96.5%
Cc1cncc2cccc(S(=O)(=O)N3CCCN(C(=O)CN)C[C@@H]3C)c12: 99.8%
Oc1ccc(Nc2nc(-c3ccc(Cl)cc3)cs2)cc1: 103%
CC(CCc1ccc(O)cc1)NCCc1ccc(O)c(O)c1 (stereo not drawn): 101%
C[C@@H](c1ncncc1F)[C@](O)(Cn1cncn1)c1ccc(F)cc1F: 98.1% and 96.7%
CCCCNc1ccc(C(=O)OCCOCCOCCOCCOCCOCCOCCOCCOCCOC)cc1: 99.5%
C=C1/C(=C\C=C2/CCC[C@]3(C)[C@@H]([C@H](C)CCCC(C)C)CC[C@@H]23)C[C@@H](O)C[C@@H]1O: 98.6%
CCCCc1nc(Cl)c(CO)n1Cc1ccc(-c2ccccc2-c2nnn[nH]2)cc1: 97.3%
